Experimental data from different studies.
Every numbered part comes from another study and shows a few of its results, in no order.

Study 1
Target: RING finger protein unkempt homolog, zinc fingers 1-6, SBP tag (UNK, Homo sapiens, UniProt Q9C0B0, residues 30-357)
UniProt Q9C0B0, sequence (30-357, looked up): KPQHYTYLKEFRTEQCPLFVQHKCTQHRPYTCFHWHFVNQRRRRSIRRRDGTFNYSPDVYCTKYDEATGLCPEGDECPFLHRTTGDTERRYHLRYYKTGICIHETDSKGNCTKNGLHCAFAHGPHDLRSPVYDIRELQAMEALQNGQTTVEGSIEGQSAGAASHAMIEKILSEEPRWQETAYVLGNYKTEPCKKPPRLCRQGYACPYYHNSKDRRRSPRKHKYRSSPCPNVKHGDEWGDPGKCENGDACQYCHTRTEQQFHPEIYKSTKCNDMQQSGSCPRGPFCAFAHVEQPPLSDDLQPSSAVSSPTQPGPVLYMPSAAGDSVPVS
Method: RNA Bind-n-Seq
Form: RNA
Matrix: in vitro
Concentration: 100 nM
Notes: RNA with constant flanks, vertebrate orthologous sites, ends assumed
Baseline: input RNA pool
Direction: higher = stronger binding
Shared flanks, not repeated: GGGAGUUCUACAGUCCGACGAUC … CAACAGAGGAUUGAGCAUCA
Sequence | bound/input enrichment
GAUUUGAUUCUUUAUGUGUUUUUGUUGUUUUUUUUUAAGGCAUAAAAACAUUUUAAAAAGAGAAAAAUCCCAACAAACCAUUUUUAAAGUAGAAGAGGGUUUUAGCUAGAAACAUGUAUU | 0.697 ratio
UGUUGGGGGAGCCGGCGGAGUGGCGCUCUCCUCUCACUGUCCUUUCCUGGCUUCGCUUUCCUCGGGUGGGCAUGGGGUUGUGGCGCCCACUGACCCUGAGGCACGAGCGCUUGUGGUUCA | 0.416 ratio
GGCAUGUCCUGUAGCUGUGUGUUCAAACACCUCACAGUACUCACUCUGUCCCAACAAUUCUAAUUGCCUAGAAAUAUCCUUCUCUUACCUGUUAUUUAUCAAUUUUUCCCAGUAUUUUUA | 2.24 ratio
UCCCAGCACUUUGAUAAAAAGCGUGGACUGGUUGCUUGUAUUUUCCUUAUUCUUUUUAAUUAGUUUUAUUAUGUAUGCUACCAUUCGAACUGAGAGUAUUCGGUGGCUAAUUCCAGGACA | 3.75 ratio
GGGCAGCCUGUGGUGGAAGCCCAUGCCCUGGCCUUGUCUCCUCUCCCUUCCACCCACUCCUAGUUACCUUUUUAUUUUUAACCACCAUGUGAUUAAGGUCGGAGCAGCCUUCCCACGACU | 3.4 ratio
AGAGCUCACAAACUGAAAGGAAAACUGUUAAAGAGUUUCUAAUAUUAACUAUUAGAAAGCUAGGAAAGAUUAGGACAAUUUUACAAAUGAGCAAUUAAAAAGAAAAUGAUCUGGGAACUA | 0.383 ratio
AGCAACCCAAGGUUUCAGGACUGGCUUUAUAAAUAUACCAAAUAGAUAUGGAACUAACAAUAGAAUUGGACAACCAAGACCUUAAUGUACUCUAGUUUCUUUUAAUUUAUUUUUAUGAAG | 0.864 ratio
GAAUUGAAAAGCCAGAGCUUCACCCAGGCCCCUGUUCACUAGGAGAUACAAAUAUUACAUUAGAAGAACAAUUAAACUCCAUAAAUUUAUCUUUUCAGGAUGAUCCAGACUCCAGUACCA | 1.21 ratio

Study 2
Target: RNA binding protein fox-1 homolog 2, RRM domain, GST-SBP tag (RBFOX2, Homo sapiens, UniProt O43251-10, residues 100-194)
Method: RNA Bind-n-Seq
Form: RNA
Matrix: in vitro
Concentration: 365 nM
Notes: natural RNA segment, single round, ends assumed
Baseline: no-protein control
Direction: higher = stronger binding
Shared flanks, not repeated: GGGAGUUCUACAGUCCGACGAUC … UGGAAUUCUCGGGUGCCAA
Target sequence (chain): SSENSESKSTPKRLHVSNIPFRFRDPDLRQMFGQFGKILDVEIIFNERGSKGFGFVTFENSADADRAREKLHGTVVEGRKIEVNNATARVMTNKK
Sequence | RBNS enrichment (R)
GAUAGAGAAAUAUGUCUUUGAAGCUCCACUUACACAAAAAUAAAACUUGUAUAUCAUGCUCCCUCAAAGAAUGUGCGAUAGAUUAUUUUAAGACCAUGAUAAUAGAGUAA | 0.738
AAUUAGUCACUCUUAGAGUAAUCUGUAUUCAGAACAAUUCAAACAAGCUGGAGGAACAGCUCCUGAUAGUGUGAGAAUUGAGCAAAUGGGAGAAAGCAAUAUUGUUAGAU | 0.329
CCUCCCCCGCCCUCGCCCAUCCCAGGUGUGUGCCACACCCAGUAUUUCUUUCAGGUCUCAACUGUGGUGUUUUAAGUGCAGGGAAAAGGAACAAUCACAGCUAUGUGUGA | 0.411
AAGUAAUGCUAAUUAGAAAUCAGUUGGACUUCAACAUUCUCAAGUACUUCCACAAAGCAUCCCUUGGUUUUAUUCCAGUUUGUUGCUUUACGUAUUUGUAAGUAUUAAAC | 0.47
ACCUGAAAUAGCCAUGAGCAAAGCCCACUGCCUUUACAGUCAGGCAGUUGUGCCCAGACCUUCAUGAAUGAAAACGUCAACGUUGAAGCGUUGCUGAUGGAAGCAGCGUG | 0.337
UCUUUCCUGCAGUGCUGUCCCCAACCCCGUGUAGCUCUGUUAUUACCAUAGGGGACUUGGUUUUGGACUCUGAUGAGGAAGAAAAUAACCAGAAGGAAGGGAAGGAGUUU | 0.366
AGAACUAGCAAGUGUCCCAAUUUUUUCCAAACGUUGGGGAGGGGAAAAUUCACUGUAUCAUGAAACCCUAAGGGUUUGUUGCACUUCCUGCUUUUUAGGCCUGGAUAACA | 0.59
ACAUUCCUUUCUUGUGCCCUGGGCCAAAACCAAUGCUGAUGACCUUAUCAGCUUCCUGUUUCUUCCCAUACUUGCAUACACCACUGCAAAAUGUCUUAAUGCAAAUUUUG | 0.239

Study 3
Target: Ras GTPase-activating protein-binding protein 1, C-terminal RGG region (G3BP1, Homo sapiens, UniProt Q13283)
UniProt Q13283, sequence (whole entry, looked up): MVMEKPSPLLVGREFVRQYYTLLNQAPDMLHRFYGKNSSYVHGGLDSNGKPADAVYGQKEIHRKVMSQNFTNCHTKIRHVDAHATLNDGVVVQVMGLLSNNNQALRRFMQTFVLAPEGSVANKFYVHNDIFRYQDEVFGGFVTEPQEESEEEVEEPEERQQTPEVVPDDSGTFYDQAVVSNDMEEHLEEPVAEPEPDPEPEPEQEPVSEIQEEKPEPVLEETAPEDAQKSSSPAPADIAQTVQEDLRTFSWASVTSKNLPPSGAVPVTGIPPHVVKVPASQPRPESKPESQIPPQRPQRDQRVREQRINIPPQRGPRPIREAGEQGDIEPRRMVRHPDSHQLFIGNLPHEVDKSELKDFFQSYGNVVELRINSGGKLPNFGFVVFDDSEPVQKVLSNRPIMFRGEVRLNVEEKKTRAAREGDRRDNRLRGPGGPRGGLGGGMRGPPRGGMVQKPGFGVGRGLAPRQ
Method: RNA Bind-n-Seq
Form: RNA
Matrix: in vitro
Concentration: 1 µM
Notes: whole 134-nt RNA, ends assumed
With: 150 mM KCl
Baseline: input library
Direction: higher = stronger binding
Shared flanks, not repeated: GGGAGUUCUACAGUCCGACGAUC … UGGAAUUCUCGGGUGUCAAGG
Sequence | log2 enrichment
ACCAUGCAGGUGGGCAUCUUUGGGAAGCGGGGCAAGGGGGGGAUAGGGAGGGGGGUAACACUUUGGGAACAGGUGGUCCCAGGUCGUUUC | -1.28
CACAGACAACACGCACCCACACAGACACAGAGGGAAGGGGUGGGGAUGGGGACAGGGUGCACAGCAGGGCGGGGUAGGACCCCAGCCCCU | 0.635
CUCAAGUCCUGUGCUACACAUCGUAUGUACCGAAUCGGGGUGGGUGGGGUGGGAAAGUAUUAUGUUACGCCGUUCGGAUCUGCACUUCCA | 1.3
ACCAUGCGGGUGGGCAUCUUUGGGAAGUGGGGCAAGGGGGGGAUAGGGAGGGGGGUAACACUUUGGGAACAGGUGGUCCCAGGUCGUUUC | -1.28
UCAUUCUAUACAGCCUUUUGUUUCAUUAGGAUCAGGCAGCUAGAGACAUGAAGAGGCUUGAAGAAAAGGACAAGGAAAGAAAAAACGUAA | -2.27
CUCAAGUCCUGUGCUACACAUCGUAUGUACCGAAUCGGGGAAGGAAGGAAGGGGAAAGUAUUAUGUUACGCCGUUCGGAUCUGCACUUCC | -1.18
UCCUGUGCUACACAUCGUAUGUACCGAAUCGGAAAAAAGGGGAAAAAAGGGGAAAAAAGGAAAGUAUUAUGUUACGCCGUUCGGAUCUGC | -1.29
AAGUCCUGUGCUACACAUCGUAUGUACCGAAUCGGGAAAAAGGGAGGGAAAAAGGGAAAGUAUUAUGUUACGCCGUUCGGAUCUGCACUU | 1.02
UGGGAGGUGGAUUUUGUUUAUUUUUGUAGCUCAUUUCCAGGGGUGGGAAUUUUUUUUUAAUAUGUGUCAUGAAUAAAGUUGUUUUUGAAA | 3.68

Study 4
Target: Sal-like protein 4, full length isoform B (SALL4, Homo sapiens, UniProt Q9UJQ4-2, residues 1-616)
Method: universal PBM
Form: double-stranded DNA, one strand shown
Matrix: in vitro
Concentration: not given
Notes: 8-mer, flanks averaged, mean of replicates
Direction: higher = stronger binding
Construct (chain): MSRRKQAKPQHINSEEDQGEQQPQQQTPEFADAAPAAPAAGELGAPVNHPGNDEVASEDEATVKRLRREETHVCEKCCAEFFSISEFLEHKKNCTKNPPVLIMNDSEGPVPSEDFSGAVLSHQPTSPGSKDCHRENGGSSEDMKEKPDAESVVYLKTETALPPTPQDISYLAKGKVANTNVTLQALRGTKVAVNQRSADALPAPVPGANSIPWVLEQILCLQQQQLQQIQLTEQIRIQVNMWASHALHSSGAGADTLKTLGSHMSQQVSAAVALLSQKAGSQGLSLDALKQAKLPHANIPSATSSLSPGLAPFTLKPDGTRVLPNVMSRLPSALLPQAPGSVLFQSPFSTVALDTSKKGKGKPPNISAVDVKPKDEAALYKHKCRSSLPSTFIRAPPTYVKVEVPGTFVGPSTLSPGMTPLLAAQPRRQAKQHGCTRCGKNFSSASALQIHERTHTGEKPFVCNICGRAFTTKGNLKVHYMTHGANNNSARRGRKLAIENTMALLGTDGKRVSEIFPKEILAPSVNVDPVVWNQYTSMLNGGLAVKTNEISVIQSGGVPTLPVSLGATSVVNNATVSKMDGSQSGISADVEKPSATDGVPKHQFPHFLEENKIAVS
Sequence | E-score
AATTTAGT | 0.196
ACAGGAAA | 0.154
ATGCCATA | 0.245
AATCCATT | 0.174
AACAATGG | 0.0726
AGTTATCC | -0.0339
ATATGCAA | 0.23
AAACAGTG | 0.0559
CTCTCGCA | -0.17
ATCGCGAA | -0.0677
GCATGTCC | -0.206
ACAGCAAG | 0.104
CGGCACTA | -0.153
GTCTCGGA | -0.264
AATTTAGA | 0.242
GGTCCTGA | -0.331

Study 5
Target: Histone acetyltransferase KAT6A, winged helix 2, GST fusion (KAT6A, Homo sapiens, UniProt Q92794, residues 85-181)
Method: protein binding microarray
Form: double-stranded DNA, one strand shown
Matrix: in vitro
Concentration: not given
Notes: 8-mer, flanks averaged, mean of 2 arrays, mostly near background
Baseline: not given
Direction: higher = stronger binding
Construct (chain): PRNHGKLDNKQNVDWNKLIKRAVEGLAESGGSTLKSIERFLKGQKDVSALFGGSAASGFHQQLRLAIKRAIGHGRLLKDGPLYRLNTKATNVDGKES
Sequence | E-score
GATCCACC | -0.13
ATCTCTTG | -0.19
CATACTTA | -0.135
GGGCTCTA | -0.0297
GGGTGTTA | -0.0741
AAGGTACC | 0.0112
ATGCTTTA | -0.0293
CGACTAAC | 0.0618
AACACGTA | -0.0498
CTCGATGA | 0.0863
ACACCTAC | -0.23
ATAGACAA | -0.0455
ATGCGTCA | -0.0244
AAGTGTGG | -0.0174
CCAGACCG | 0.173
ATCCAAAG | 0.0951
GCAACGCC | 0.17

Excerpt of the above (study 1):
Sequence | bound/input enrichment
GAAUUGAAAAGCCAGAGCUUCACCCAGGCCCCUGUUCACUAGGAGAUACAAAUAUUACAUUAGAAGAACAAUUAAACUCCAUAAAUUUAUCUUUUCAGGAUGAUCCAGACUCCAGUACCA | 1.21 ratio
AGAGCUCACAAACUGAAAGGAAAACUGUUAAAGAGUUUCUAAUAUUAACUAUUAGAAAGCUAGGAAAGAUUAGGACAAUUUUACAAAUGAGCAAUUAAAAAGAAAAUGAUCUGGGAACUA | 0.383 ratio
AGCAACCCAAGGUUUCAGGACUGGCUUUAUAAAUAUACCAAAUAGAUAUGGAACUAACAAUAGAAUUGGACAACCAAGACCUUAAUGUACUCUAGUUUCUUUUAAUUUAUUUUUAUGAAG | 0.864 ratio
GGGCAGCCUGUGGUGGAAGCCCAUGCCCUGGCCUUGUCUCCUCUCCCUUCCACCCACUCCUAGUUACCUUUUUAUUUUUAACCACCAUGUGAUUAAGGUCGGAGCAGCCUUCCCACGACU | 3.4 ratio
UCCCAGCACUUUGAUAAAAAGCGUGGACUGGUUGCUUGUAUUUUCCUUAUUCUUUUUAAUUAGUUUUAUUAUGUAUGCUACCAUUCGAACUGAGAGUAUUCGGUGGCUAAUUCCAGGACA | 3.75 ratio
UGUUGGGGGAGCCGGCGGAGUGGCGCUCUCCUCUCACUGUCCUUUCCUGGCUUCGCUUUCCUCGGGUGGGCAUGGGGUUGUGGCGCCCACUGACCCUGAGGCACGAGCGCUUGUGGUUCA | 0.416 ratio
GAUUUGAUUCUUUAUGUGUUUUUGUUGUUUUUUUUUAAGGCAUAAAAACAUUUUAAAAAGAGAAAAAUCCCAACAAACCAUUUUUAAAGUAGAAGAGGGUUUUAGCUAGAAACAUGUAUU | 0.697 ratio
GGCAUGUCCUGUAGCUGUGUGUUCAAACACCUCACAGUACUCACUCUGUCCCAACAAUUCUAAUUGCCUAGAAAUAUCCUUCUCUUACCUGUUAUUUAUCAAUUUUUCCCAGUAUUUUUA | 2.24 ratio
